{"data": "Published values of several laboratories", "note": "Each numbered part is a random draw from the data of one study; scales do not carry over between parts."}
{"data": "Set 1", "target": "RNA binding protein fox-1 homolog 2, RRM domain, GST-SBP tag (RBFOX2, Homo sapiens, UniProt O43251-10, residues 100-194)", "technique": "RNA Bind-n-Seq", "form": "RNA", "sample": "in vitro", "concentration": "365 nM", "notes": "natural RNA segment, single round, ends assumed", "relative to": "no-protein control", "direction": "higher = stronger binding", "Target sequence (chain)": "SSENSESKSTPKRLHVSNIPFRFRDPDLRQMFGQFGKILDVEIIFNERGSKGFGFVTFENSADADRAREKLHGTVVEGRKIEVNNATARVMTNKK"}
{"Oligonucleotide": "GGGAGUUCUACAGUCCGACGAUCUCUGGCUGGGCUGCUCAGGGUGACAUCAUAGCACCUCUGGGAAUGCUGCCGAAGAACCCCAUGGUCCUCCCACAAUACCAAAGCUUCCCUGUUUCCCCUUCUGCCUCCGUUGGAAUUCUCGGGUGCCAA", "RBNS enrichment (R)": 0.746}
{"Oligonucleotide": "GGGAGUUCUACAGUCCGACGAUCCUGUGGCUUUCUUUUCCUAUUUUAUGAAAAAAAUGAUAAUCUUUUUGUAAAAUUGUCUGUGAAAUAUAAACAUUAAUAUAUAAAGAAAAACCUUGAAGUGCUGUAUAGUGUGGAAUUCUCGGGUGCCAA", "RBNS enrichment (R)": 0.744}
{"Oligonucleotide": "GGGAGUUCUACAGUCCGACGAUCAUUUUUAAUGUGUACUGUAAAACUUGAAAUACUCAGGAGCUGAGUGAAUAUGUUUGUUGCUACUUACAAUCCCGACCUGUUAGUCCCAGUAGUUUUGUUUUAACAUGGUCUGGAAUUCUCGGGUGCCAA", "RBNS enrichment (R)": 0.912}
{"Oligonucleotide": "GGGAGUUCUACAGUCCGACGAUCAACUACUUGUAGUGAGGGUGCUGUGUGUGCUUUUCUUAAAUAUUUAUUUUUUUCAACAUGCUUUCAACCUGUCAACAAAAACAAAACACACAAAAAAAGGGCAGUGUUUGUGGAAUUCUCGGGUGCCAA", "RBNS enrichment (R)": 0.583}
{"Oligonucleotide": "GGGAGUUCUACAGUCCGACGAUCUGUGUGUAAACAAACGUGCACGUGCUCGCACUUAGCUGCGCAGGCUUUCUGUGCAUGAACUAGAAAAGGAGACAUUAUAUUAAAUUAGCCACCUUUUGGCCCCUAAGCUCUGGAAUUCUCGGGUGCCAA", "RBNS enrichment (R)": 0.481}
{"Oligonucleotide": "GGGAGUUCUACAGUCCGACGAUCUGUGCCAUUCUGCUCAAAACUAAAUGGUGGUCAGGUUCAAGUAAAGAAAAAUAAAACAAGCUGCAUUUAUAGACUUGCUUGGAAUUGAAAUGAACAUAGCCAGUUCCUACUGGAAUUCUCGGGUGCCAA", "RBNS enrichment (R)": 0.764}
{"Oligonucleotide": "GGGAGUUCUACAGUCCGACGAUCAAGCUGCUUCACAACUCCAGGCUAGAAGGCAGGAGAGCGAUCUGAUGUGUUUCUUUCAUUUGCCAGAAUUCCUGAUACCAAAAGCCUCUCUCUCUGUUGAGUAACCUCUCUGGAAUUCUCGGGUGCCAA", "RBNS enrichment (R)": 0.331}
{"Oligonucleotide": "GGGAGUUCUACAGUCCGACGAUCGAUUGGUUGACGUGAGUUGGUUGAGUCUCUGGAGCAUCAGUUUUCAACUUCUGGAUCGCAACCCCUUUGGGGGUGGGUAGGUCACAUAACAGAUAUGCUGACUAACAGAGUGGAAUUCUCGGGUGCCAA", "RBNS enrichment (R)": 0.525}
{"Oligonucleotide": "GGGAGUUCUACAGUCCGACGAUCUCCUCUUUCUUGUAGCCUUUUGACUCAGUGGAAUCGAAGAUACAAUUUUCCUUAGACUACCUAGUGGAGCAGGGAAUACUCUGCAUCUCAGGUAAAAAAAUGAGUACACUUGGAAUUCUCGGGUGCCAA", "RBNS enrichment (R)": 0.257}
{"data": "Set 2", "target": "Sal-like protein 4, full length isoform A (SALL4, Homo sapiens, UniProt Q9UJQ4, residues 1-1053)", "technique": "universal PBM", "form": "double-stranded DNA, one strand shown", "sample": "in vitro", "concentration": "600 nM", "notes": "8-mer, flanks averaged, mean of replicates", "direction": "higher = stronger binding", "sequence of UniProt Q9UJQ4 (whole entry, looked up)": "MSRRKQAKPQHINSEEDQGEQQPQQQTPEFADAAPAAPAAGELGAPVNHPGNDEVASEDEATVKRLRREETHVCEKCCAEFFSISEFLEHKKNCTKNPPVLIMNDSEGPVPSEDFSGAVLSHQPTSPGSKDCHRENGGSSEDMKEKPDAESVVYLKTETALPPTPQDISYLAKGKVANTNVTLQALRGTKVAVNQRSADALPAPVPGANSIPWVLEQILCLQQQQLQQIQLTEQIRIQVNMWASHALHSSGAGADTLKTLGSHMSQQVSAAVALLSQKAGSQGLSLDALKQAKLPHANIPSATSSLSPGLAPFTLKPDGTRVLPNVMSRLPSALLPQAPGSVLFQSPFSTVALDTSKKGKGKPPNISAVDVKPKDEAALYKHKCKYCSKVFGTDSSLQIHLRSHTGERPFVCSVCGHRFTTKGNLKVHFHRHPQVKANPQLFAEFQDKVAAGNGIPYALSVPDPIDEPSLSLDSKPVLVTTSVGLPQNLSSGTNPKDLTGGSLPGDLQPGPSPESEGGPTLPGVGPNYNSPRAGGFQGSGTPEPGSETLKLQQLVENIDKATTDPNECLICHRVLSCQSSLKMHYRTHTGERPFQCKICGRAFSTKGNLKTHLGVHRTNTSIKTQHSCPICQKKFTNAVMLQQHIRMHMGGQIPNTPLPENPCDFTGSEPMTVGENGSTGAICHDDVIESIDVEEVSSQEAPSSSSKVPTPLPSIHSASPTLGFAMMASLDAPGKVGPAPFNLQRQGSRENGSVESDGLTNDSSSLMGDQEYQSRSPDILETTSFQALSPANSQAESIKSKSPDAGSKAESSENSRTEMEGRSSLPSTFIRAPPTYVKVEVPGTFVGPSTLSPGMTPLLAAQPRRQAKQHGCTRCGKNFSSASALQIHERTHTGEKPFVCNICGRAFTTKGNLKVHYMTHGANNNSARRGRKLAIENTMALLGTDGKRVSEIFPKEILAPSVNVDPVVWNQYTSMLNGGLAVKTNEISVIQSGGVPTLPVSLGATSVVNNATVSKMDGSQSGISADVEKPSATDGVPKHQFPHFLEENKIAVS"}
{"Oligonucleotide": "GAGGCGGC", "E-score": -0.211}
{"Oligonucleotide": "AGCGCTCC", "E-score": -0.19}
{"Oligonucleotide": "CTACCGGA", "E-score": -0.31}
{"Oligonucleotide": "CAGATCCG", "E-score": -0.142}
{"Oligonucleotide": "CACTTATG", "E-score": 0.2}
{"Oligonucleotide": "ACCACCGG", "E-score": -0.247}
{"Oligonucleotide": "AAGAGACC", "E-score": -0.204}
{"Oligonucleotide": "GTGGCGAA", "E-score": -0.0838}
{"Oligonucleotide": "GACCCCGA", "E-score": -0.251}
{"Oligonucleotide": "ACAACGCT", "E-score": 0.0582}
{"Oligonucleotide": "TACGCCGA", "E-score": -0.209}
{"Oligonucleotide": "CAGGAAGA", "E-score": -0.0635}
{"Oligonucleotide": "GCCATAAC", "E-score": 0.1}
{"Oligonucleotide": "CTCGATAC", "E-score": 0.201}
{"Oligonucleotide": "CACCGCAG", "E-score": -0.106}
{"Oligonucleotide": "TAAAAATA", "E-score": 0.402}
{"data": "Set 3", "target": "Phosphate system positive regulatory protein PHO4, full length, GST-tagged (PHO4, Saccharomyces cerevisiae, UniProt P07270, residues 1-312)", "technique": "competition protein-binding microarray", "form": "double-stranded DNA, one strand shown", "sample": "in vitro", "concentration": "2 µM", "notes": "whole 60-bp probe, lowest competitor level", "together with": "Cbf1 competitor, 0.05 µM", "direction": "higher = stronger binding", "Residues (chain)": "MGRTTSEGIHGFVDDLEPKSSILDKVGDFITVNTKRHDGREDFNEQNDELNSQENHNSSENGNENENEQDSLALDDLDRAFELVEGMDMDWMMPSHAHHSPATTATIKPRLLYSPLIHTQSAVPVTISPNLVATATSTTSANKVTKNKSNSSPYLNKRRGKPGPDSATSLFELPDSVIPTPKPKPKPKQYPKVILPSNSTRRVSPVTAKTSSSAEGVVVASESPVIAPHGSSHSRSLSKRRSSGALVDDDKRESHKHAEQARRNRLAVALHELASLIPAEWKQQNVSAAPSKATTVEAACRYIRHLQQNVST"}
{"Oligonucleotide": "ACCCGGGTGCTTCGTCACGTGCAAATCAAATATGAAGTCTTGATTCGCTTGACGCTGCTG", "fluorescence intensity [a.u.]": 16000}
{"Oligonucleotide": "CTATACTGTCATAGACCCGTGTGGAGGAGGCAGCGCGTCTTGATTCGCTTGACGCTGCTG", "fluorescence intensity [a.u.]": 7230}
{"Oligonucleotide": "AAAGGCCATACCCGTCACAGTCCATCACAGAACCGCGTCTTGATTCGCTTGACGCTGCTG", "fluorescence intensity [a.u.]": 3460}
{"Oligonucleotide": "TGCGCAACAACTTGCATCGTGGGTGTATGTCTAGAAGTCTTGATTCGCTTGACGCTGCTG", "fluorescence intensity [a.u.]": 11400}
{"Oligonucleotide": "TTTGTGGTTTTCAGCCGCGTGTATACCTTCAGCTTGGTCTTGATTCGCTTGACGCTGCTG", "fluorescence intensity [a.u.]": 7480}
{"Oligonucleotide": "CTAACGAAGGTTTGTGACGTGGGTGACAAGCCAAGTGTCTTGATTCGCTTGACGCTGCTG", "fluorescence intensity [a.u.]": 5480}
{"Oligonucleotide": "CATACCCAACCTTGTTAGGTGGGTGAAGATATTTGTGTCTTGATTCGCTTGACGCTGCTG", "fluorescence intensity [a.u.]": 3580}
{"Oligonucleotide": "CGTCCTAGTGATTGTTTAGTGGGTGCCATGAGGAAGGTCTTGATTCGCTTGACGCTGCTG", "fluorescence intensity [a.u.]": 6690}
{"Oligonucleotide": "CGTCCTAGTGATTGTAGAGTGGGTGCCATGAGGAAGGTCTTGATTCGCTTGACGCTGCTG", "fluorescence intensity [a.u.]": 6670}
{"Oligonucleotide": "CTTTCCCGATCTTGTTGCGTGGGTGTAGCACATTTGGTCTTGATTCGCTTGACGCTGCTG", "fluorescence intensity [a.u.]": 6800}
{"Oligonucleotide": "TTTTACTGCAGAAAGCACGTGGAGGATCTGCTTCATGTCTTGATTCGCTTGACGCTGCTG", "fluorescence intensity [a.u.]": 17400}
{"Oligonucleotide": "CGGGGTTAAGTTTGAGCAGTGGGTGGCTTGCAGCAGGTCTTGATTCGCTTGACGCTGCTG", "fluorescence intensity [a.u.]": 4430}
{"Oligonucleotide": "CTGACGGGTTCTGGACACGTAGGCAATCCATATTGGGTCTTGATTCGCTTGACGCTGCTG", "fluorescence intensity [a.u.]": 5140}
{"Oligonucleotide": "GCAATGCGATGCAGCCACGTTATATAATGCGTTTAAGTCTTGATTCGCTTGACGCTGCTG", "fluorescence intensity [a.u.]": 8510}
{"Oligonucleotide": "CGGGCTTGTCTCAGGCTCGTGTGGACCGCACTGTAAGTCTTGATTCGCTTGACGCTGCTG", "fluorescence intensity [a.u.]": 6930}
{"Oligonucleotide": "GTTTCAGCGAAGTCGCACGTGAAGGATAGCAGTGGCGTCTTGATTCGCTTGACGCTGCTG", "fluorescence intensity [a.u.]": 12700}
{"Oligonucleotide": "GGTGATATACTGCGACACAATTTGTGTCTCTACTGTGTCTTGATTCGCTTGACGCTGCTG", "fluorescence intensity [a.u.]": 4450}
{"data": "Set 4", "target": "Ras GTPase-activating protein-binding protein 1, C-terminal RGG region (G3BP1, Homo sapiens, UniProt Q13283)", "technique": "RNA Bind-n-Seq", "form": "RNA", "sample": "in vitro", "concentration": "1 µM", "notes": "whole 134-nt RNA, ends assumed", "together with": "150 mM KCl", "relative to": "input library", "direction": "higher = stronger binding", "sequence of UniProt Q13283 (whole entry, looked up)": "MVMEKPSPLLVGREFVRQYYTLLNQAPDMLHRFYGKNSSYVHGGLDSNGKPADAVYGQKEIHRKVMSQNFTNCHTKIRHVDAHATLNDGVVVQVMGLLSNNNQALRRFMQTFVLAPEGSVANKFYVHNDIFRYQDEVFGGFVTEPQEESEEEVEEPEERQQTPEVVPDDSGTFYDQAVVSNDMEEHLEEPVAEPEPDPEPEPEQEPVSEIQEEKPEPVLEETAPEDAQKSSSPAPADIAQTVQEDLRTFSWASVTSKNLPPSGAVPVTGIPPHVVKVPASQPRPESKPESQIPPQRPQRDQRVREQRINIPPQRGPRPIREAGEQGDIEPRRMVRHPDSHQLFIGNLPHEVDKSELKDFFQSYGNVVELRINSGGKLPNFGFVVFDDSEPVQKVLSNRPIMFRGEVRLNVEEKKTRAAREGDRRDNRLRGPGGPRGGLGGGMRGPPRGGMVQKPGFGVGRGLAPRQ"}
{"Oligonucleotide": "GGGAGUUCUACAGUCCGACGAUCGCAGGAAGUAAAAACAAAUGGAAAUGCUUCGGAUAGUGGCAAAGGUGGGGGUUGCUAAGGAAAGGGUGGGAUGGGAGUGGGUAAAGAGUUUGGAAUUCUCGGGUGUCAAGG", "log2 enrichment": 2.29}
{"Oligonucleotide": "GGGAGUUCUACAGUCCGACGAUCUAACUUUAGAGGAGGAUCUGAUGGAUAUGGCAGUGGACGUGGAUUUGGGGAUGGCUAUAACGGGUAUGGAGGAGGACCUGGAGGUGGCAAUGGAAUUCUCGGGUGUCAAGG", "log2 enrichment": -1.27}
{"Oligonucleotide": "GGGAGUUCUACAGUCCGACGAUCAGUCCUGUGCUACACAUCGUAUGUACCGAAUCGGGAAAAAAAGGGUGGGUUUUUGGGAAAGUAUUAUGUUACGCCGUUCGGAUCUGCACUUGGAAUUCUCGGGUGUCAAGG", "log2 enrichment": 0.751}
{"Oligonucleotide": "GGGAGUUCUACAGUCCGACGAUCGUCCUGUGCUACACAUCGUAUGUACCGAAUCGGGAAAAAGGGUUUUUUUGGGAAAGGGAAAGUAUUAUGUUACGCCGUUCGGAUCUGCACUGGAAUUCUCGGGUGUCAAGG", "log2 enrichment": -0.835}
{"Oligonucleotide": "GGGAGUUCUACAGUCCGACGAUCCCUGUGCUACACAUCGUAUGUACCGAAUCGGUUUUUUGGGGUUUUUUGGGGUUUUUUGGGAAAGUAUUAUGUUACGCCGUUCGGAUCUGCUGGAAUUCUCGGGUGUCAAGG", "log2 enrichment": -1.41}
{"Oligonucleotide": "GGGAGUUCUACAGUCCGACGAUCUGGGAGGUGGAUUUUGUUUAUUUUUUUAGCUCAUUUCCCGGGGUGGGAAUUUUUUUUUAAUAUGUGUCAUGAAUAAAGUUGUUUUUGAAAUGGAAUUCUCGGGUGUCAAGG", "log2 enrichment": 3.23}
{"Oligonucleotide": "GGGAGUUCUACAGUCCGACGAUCGUCCUGUGCUACACAUCGUAUGUACCGAAUCGGGGAAAAAGGGGUUUUUGGGGUGGGGAAAGUAUUAUGUUACGCCGUUCGGAUCUGCACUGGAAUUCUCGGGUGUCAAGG", "log2 enrichment": 1.13}
{"Oligonucleotide": "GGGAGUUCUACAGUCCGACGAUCUCCUGUGCUACACAUCGUAUGUACCGAAUCAAACCCCCAAAUUUUUUUAAAUUUUUAAAAAAGUAUUAUGUUACGCCGUUCGGAUCUGCAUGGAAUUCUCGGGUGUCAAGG", "log2 enrichment": -0.638}
{"Oligonucleotide": "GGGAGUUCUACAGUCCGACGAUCCAUCAAAAUAGCUACAAACCAUACUAAAUUAUUCCAUUUGCAACUUAUCCCCAACAGGUAUGUUCUAAAAAUAGUUUUUUUUUGUCAUUUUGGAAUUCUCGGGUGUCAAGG", "log2 enrichment": -0.45}
{"Oligonucleotide": "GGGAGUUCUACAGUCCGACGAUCGUCCUGUGCUACACAUCGUAUGUACCGAAUCAAAUUUUUUUAAACCCAAAUUUUUAAAAAAGUAUUAUGUUACGCCGUUCGGAUCUGCACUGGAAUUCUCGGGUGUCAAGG", "log2 enrichment": -1.44}
